Published values pooled from the literature.
Each line is one published result; not all experiments were run side by side. ± marks the error that the study gave.

CC1SC(N/N=C2\c3ccccc3-c3nc4cc(F)ccc4nc32)=NC1=O (centres unmarked)  blood glucose (mice with STZ-induced diabetes; oral, 25 mg/kg, 288 h, day 12): 318 ± 27.7 mg/dL
CCNC(=S)NNS(=O)(=O)c1ccc2c(c1)n(C)c(=O)c(=O)n2C  blood glucose (IPGTT; HFD/STZ diabetic male albino mice; 10 mg/kg, 2 h): 126 ± 7.15 mg/dL
CC[C@H](C)[C@H](NC(=O)[C@H](CC(N)=O)NC(=O)[C@H](CC(N)=O)NC(=O)[C@H](CCCNC(=N)N)NC(=O)[C@H](CC(N)=O)NC(=O)[C@H](CCCNC(=N)N)NC(=O)[C@H](CCCCN)NC(=O)[C@@H](NC(=O)[C@H](CC(N)=O)NC(=O)[C@H](CCSC)NC(=O)[C@H](CC(C)C)NC(=O)[C@H](Cc1c[nH]c2ccccc12)NC(=O)[C@@H]1CSCc2ccc(cc2)-c2ccc(cc2)CSC[C@H](NC(=O)[C@H](CCC(=O)O)NC(=O)[C@H](CC(=O)O)NC(=O)[C@H](CC(C)C)NC(=O)[C@H](Cc2ccc(O)cc2)NC(=O)[C@H](CCCCN)NC(=O)[C@H](CO)NC(=O)[C@H](Cc2ccc(O)cc2)NC(=O)[C@H](CC(=O)O)NC(=O)[C@H](CO)NC(=O)[C@@H](NC(=O)[C@H](Cc2ccccc2)NC(=O)[C@@H](NC(=O)CNC(=O)[C@H](CCC(N)=O)NC(=O)[C@@H](CO)NC(=O)[C@@H](N)Cc2c[nH]cn2)[C@@H](C)O)[C@@H](C)O)C(=O)N[C@@H](C)C(=O)N[C@@H](C)C(=O)N[C@@H](CCCCN)C(=O)N[C@@H](CCC(=O)O)C(=O)N[C@@H](Cc2ccccc2)C(=O)N[C@@H]([C@@H](C)CC)C(=O)N1)[C@@H](C)O)C(=O)N[C@@H](C)C(N)=O  blood glucose (mice; subcutaneous, 10 µg/mouse, 4 h before glucose, oral glucose tolerance test): 40%
NC(=S)N/N=C1\c2ccccc2-c2nc3cc(F)ccc3nc21  blood glucose (mice with STZ-induced diabetes; oral, 25 mg/kg, 144 h, day 6): 258 ± 16.6 mg/dL
CCOC(=O)[C@H](C)NP(=O)(N[C@@H](C)C(=O)OCC)c1ccc(-c2nc(N)sc2CC(C)C)o1  blood glucose decrease (wild-type mice, fasted 16 h, blood; intraperitoneal, 75 mg/kg, 2 to 3 h): ~40%
O=C(OCc1cccc(O)c1O)c1ccc(O)c(CO)c1  blood pressure (p47phox knockout mice; intraperitoneal, 2.5 mg/kg/day, 14 days, added: angiotensin II 0.8 mg/kg/day): no effect
Cn1c(=O)c(=O)n(C)c2cc(S(=O)(=O)NNC(=S)Nc3ccccc3)ccc21  blood glucose (IPGTT; HFD/STZ diabetic male albino mice; 10 mg/kg, 6 h): 85.3 ± 5.3 mg/dL
CC/C=C\C/C=C\C/C=C\C/C=C\C/C=C\CCCCOC(CC)C(=O)O (centres unmarked)  blood glucose change (ob/ob mice; in diet, 135 mg/kg/day, 4 weeks; reference: control): -50%

For quick reference, copied from above:
CCNC(=S)NNS(=O)(=O)c1ccc2c(c1)n(C)c(=O)c(=O)n2C  blood glucose (IPGTT; HFD/STZ diabetic male albino mice; 10 mg/kg, 2 h): 126 ± 7.15 mg/dL
